Results from different studies.
Lines come from different studies, so protocols differ. Numbers after ± are the reported error.

Under “apparent volume of distribution”, `C=CC(=O)Nc1cc(Nc2nccc(-c3cn(C)c4ccccc34)n2)c(OC)cc1N(C)CCN(C)C` is recorded as 75.5 ± 27.5 L/kg (Sprague-Dawley rat, male, plasma; oral, 10 mg/kg, together with: avitinib 30 mg/kg daily for 7 days).
With `O=c1c(O)c(-c2ccc(O)c(OS(=O)(=O)O)c2)oc2cc(O)cc(O)c12` the mean concentration was 18.1 nM (human, fasted baseline, cerebrospinal fluid).
`CC[C@H](C)[C@H](NC(=O)[C@H](Cc1ccccc1)NC(=O)[C@H](CCC(=O)O)NC(=O)[C@H](CCCCNC(=O)COCCOCCNC(=O)COCCOCCNC(=O)CC[C@H](NC(=O)CCCCCCCCCCCCCCCCC(=O)O)C(=O)O)NC(=O)[C@H](C)NC(=O)[C@H](C)NC(=O)[C@H](CCC(N)=O)NC(=O)CNC(=O)[C@H](CCC(=O)O)NC(=O)[C@H](CC(C)C)NC(=O)[C@H](Cc1ccc(O)cc1)NC(=O)[C@H](CO)NC(=O)[C@H](CO)NC(=O)[C@@H](NC(=O)[C@H](CC(=O)O)NC(=O)[C@H](CO)NC(=O)[C@@H](NC(=O)[C@H](Cc1ccccc1)NC(=O)[C@@H](NC(=O)CNC(=O)[C@H](CCC(=O)O)NC(=O)C(C)(C)NC(=O)[C@@H](N)Cc1cnc[nH]1)[C@@H](C)O)[C@@H](C)O)C(C)C)C(=O)N[C@@H](C)C(=O)N[C@@H](Cc1c[nH]c2ccccc12)C(=O)N[C@@H](CC(C)C)C(=O)N[C@H](C(=O)N[C@@H](CCCNC(=N)N)C(=O)NCC(=O)N[C@@H](CCCNC(=N)N)C(=O)NCC(=O)O)C(C)C`: “dose-corrected accumulation ratio” 2.09 (Japanese subjects; subcutaneous once weekly, 1.0 mg, geometric mean; baseline: steady state over single dose).
The EC20 of `O=C(O)c1cc(-c2ccc(F)cc2F)ccc1O` is reported as > 200 µM (cytochrome c release, ELISA; BALB/cByJ female mouse liver mitochondria; 30 min; baseline: alamethicin maximal release).
`CS(=O)(=O)c1ccc(-c2cnc(N)c(-c3ccc(C(F)(F)F)nc3)c2)cc1` gave an AUC(0-t) of 39200 ng·h/mL (pregnant female Sprague-Dawley rat, plasma; oral, 10 mg/kg/day, gestation day 17).
`Ac-CGWWLALALALALALALALALWWA-NH2 (N-acetyl, C-amide)` — result for “folded core length”: 7 residues (circular dichroism; water/TFE, extrapolated to water).
`CO[C@H]1C[C@@H]2CC[C@@H](C)[C@@](O)(O2)C(=O)C(=O)N2CCCC[C@H]2C(=O)O[C@H]([C@H](C)C[C@@H]2CC[C@@H](OC(=O)C(C)(CO)CO)[C@H](OC)C2)CC(=O)[C@H](C)/C=C(\C)[C@@H](O)[C@@H](OC)C(=O)[C@H](C)C[C@H](C)/C=C/C=C/C=C/1C` has a median AUC(0-t) of 9090 ng·h/mL (human, whole blood; intravenous, 35 mg/m2 weekly, 0 to 24 h post dose, cycle 5, together with: valproic acid).
The Tmax of `CCCC[C@H](NC(C)=O)C(=O)N[C@H]1CCC(=O)NC[C@@H](C(=O)N[C@@H](Cc2c[nH]c3ccccc23)C(N)=O)NC(=O)[C@H](CCCNC(=N)N)NC(=O)[C@@H](Cc2ccccc2)NC(=O)[C@H](Cc2c[nH]cn2)NC1=O` is reported as 45 min (beagle dog, male, plasma; subcutaneous, 1.5 mg/kg daily, day 28).
`COc1cccc2c1C(=O)c1c(O)c3c(c(O)c1C2=O)C[C@@](O)(C(=O)CO)C[C@@H]3O[C@H]1C[C@H](N)[C@H](O)[C@H](C)O1` has an EC20 of 85 µM (mitochondrial swelling; BALB/cByJ female mouse liver mitochondria; 30 min, together with: succinate + rotenone; baseline: CaCl2 maximal swelling).
Under serum stability, `CC(C)[C@H](NC(=O)[C@@H]1CCCN1C(=O)[C@H](CCCNC(=N)N)NC(=O)[C@H](CS)NC(=O)[C@H](Cc1c[nH]c2ccccc12)NC(=O)[C@H](CCCNC(=N)N)NC(=O)[C@@H](Cc1ccccc1)NC(=O)[C@H](Cc1c[nH]cn1)NC(=O)[C@H](CCC(=O)O)NC(=O)[C@H](CS)NC(=O)[C@H](CS)NC(=O)[C@H](CCCCN)NC(=O)[C@@H]1CC(=O)N[C@@H](CCCNC(=N)N)C(=O)N[C@@H](C(C)C)C(=O)N[C@@H](CC(=O)O)C(=O)N[C@H](Cc2ccc(O)cc2)C(=O)N1)C(N)=O` [technetium-99m labelled] is recorded as “stable” (radio-HPLC; mouse serum; 24 h, 37 °C).
`COc1cccc(N2CCN(C3=Nc4c(F)cccc4[C@H](CC(=O)O)N3c3cc(C(F)(F)F)ccc3OC)CC2)c1` has an AUC(0-last) of 105000 ± 21300 ng·h/mL (UHPLC-MS/MS; healthy women, plasma; intravenous infusion, 480 mg single dose, 60 min infusion, HPβCD formulation).
`O=c1c(-c2ccc(O)cc2)coc2cc(O)cc(O)c12` has an EC20 of > 200 µM (cytochrome c release, ELISA; BALB/cByJ female mouse liver mitochondria; 30 min; baseline: alamethicin maximal release).
With `O=C(C1CC1)n1nc(C(F)(F)F)c2cnccc21` the half-life was > 240 min (chemical stability; aqueous buffer; pH 7.4).
`Cc1cc(C)c2c(c1)[C@@H](N(Cc1cc(C(F)(F)F)cc(C(F)(F)F)c1)c1nnn(C)n1)CCCN2C[C@H]1CC[C@H](C(=O)O)CC1` — result for “AUC(0-tau) at steady state”: 5960 ng·h/mL (human, dyslipidemic patients, plasma; oral, 100 mg daily, geometric mean, together with: rosuvastatin).
The Ctrough of `CS(=O)(=O)n1cc2c(n1)CN([C@H]1CO[C@H](c3cc(F)ccc3F)[C@@H](N)C1)C2` is reported as 14.8 nM (healthy Japanese men, plasma; oral, 25 mg once weekly, day 1).
For `CCCCCCCCCCCCCCC[C@H](O)[C@@H](N)CO`, the AUC was 105 µM·h (human, phase I, plasma; intravenous, 930 mg/m^2, day 1, monotherapy).
Under “single disulfide form”, `CC[C@H](C)[C@H](NC(=O)[C@H](C)NC(=O)[C@H](CCCNC(=N)N)NC(=O)[C@H](CCCNC(=N)N)NC(=O)[C@H](CC(N)=O)NC(=O)[C@H](CCCNC(=N)N)NC(=O)[C@H](CCCNC(=N)N)NC(=O)[C@H](C)NC(=O)[C@@H](NC(=O)[C@@H](NC(=O)[C@@H](NC(=O)[C@H](CS)NC(=O)[C@H](CCCCN)NC(=O)[C@@H](N)CCCNC(=N)N)C(C)C)[C@@H](C)CC)C(C)C)C(=O)N[C@H](C(=O)N[C@@H](CC(C)C)C(=O)N[C@@H](CS)C(=O)N[C@@H](CCCNC(=N)N)C(=O)O)[C@@H](C)CC` is recorded as 59% (LC-MS; PBS; 0.1 mg/mL).
`Cn1c(-c2ccc(C(N)=O)cc2F)nnc1C(C)(C)Oc1c(F)cc(Cl)cc1F` has a Ctrough of 0.443 to 0.652 ng/mL (young non-Japanese healthy subjects, plasma; oral, 0.2 mg once daily, 3 mg loading day 1, min-max, last dosing day).
With `COc1cc(Nc2ncc3c(n2)-c2ccc(Cl)cc2C(c2c(F)cccc2OC)=NC3)ccc1C(=O)O` the AUC(0-8h) was 2620 ± 1570 ng·h/mL (human, phase I; oral, 40 mg single dose).
`CC(=O)N1CCN(c2ccc(OCC3COC(Cn4ccnc4)(c4ccc(Cl)cc4Cl)O3)cc2)CC1` (stereo not drawn) gave an EC20 of > 400 µM (cytochrome c release, ELISA; BALB/cByJ female mouse liver mitochondria; 30 min; baseline: alamethicin maximal release).
With `CNCc1ccc(-c2[nH]c3cc(F)cc4c3c2CCNC4=O)cc1` the AUC(0-24 h) was 6000 ng·h/mL (human, plasma; oral, 300 mg, fed, high-fat meal, median).
The EC20 of `Clc1ccccc1C(c1ccccc1)(c1ccccc1)n1ccnc1` is reported as > 800 µM (cytochrome c release, ELISA; BALB/cByJ female mouse liver mitochondria; 30 min; baseline: alamethicin maximal release).
With `CC(C)(Oc1ccc(C2CC2(Cl)Cl)cc1)C(=O)O` (stereo not drawn) the body weight was 231 ± 9 g (female Sprague-Dawley rat; oral, 7.5 mg/kg/day, 21 days).
`COc1cccc(-c2ccc(NC(=O)C3=C(C(=O)O)CCC3)c(F)c2)c1` gave an AUC(0-24h) of 24200 ng·h/mL (human, male, fed, plasma; oral, 10 mg, single dose, geometric mean).
For `Cc1ccc2[nH]c(=O)c(CC(=O)O)c(-c3ccccc3)c2c1`, the logP was 3.16 (potentiometric).
With `CC[C@H](C)CCCCC(=O)N[C@@H](CCN)C(=O)N[C@H](C(=O)N[C@@H](CCN)C(=O)N[C@H]1CCNC(=O)[C@H]([C@@H](C)O)NC(=O)[C@H](CCN)NC(=O)[C@H](CCN)NC(=O)[C@H](CC(C)C)NC(=O)[C@@H](Cc2ccccc2)NC(=O)[C@H](CCN)NC1=O)[C@@H](C)O` the free Cmax was 140 ng/mL (equilibrium dialysis LC-MS/MS; human patients, plasma; dose not given, median).
`Cc1ccc(NC(=O)c2ccc(CN3CCNCC3)cc2)cc1Nc1nccc(-c2cccnc2)n1` gave an AUC(0-24h) of 13200 ng·h/mL (human patients, plasma; oral, 400 mg/day of imatinib, day 14 of cycle 1, together with: IL-2 6 MIU/day days 10-14).
`CN1CC[C@H](c2c(O)cc(O)c3c(=O)cc(-c4ccccc4Cl)oc23)[C@H](O)C1`: “mean plasma concentration” 1420 nM (human patients, plasma; intravenous, 30 mg/m^2 loading dose, 0.5 h).
The AUC(0-12 h) of `CC(=O)CCc1ccc(O)cc1` is reported as 20.2 ± 6.72 nmol·min/g (female C57BL/6J mice, low-fat diet, brain; oral, 200 mg/kg).
`O=c1[nH]c(=O)c(Cc2cccc(C(F)(F)F)c2)c([C@H]2CC[C@H](c3ccccc3)CC2)[nH]1` gave an AUC(0-tau) of 5600 ng·h/mL (human, plasma; oral, 450 mg once daily, day 7, geometric mean).
Under “maximum serum concentration”, `C[C@]12CC[C@@H]3c4ccc(O)cc4CC[C@H]3[C@@H]1C[C@@H](O)[C@@H]2O` is recorded as 0 ng/mL (GC-MS; breast cancer women on NSAI, serum; vaginal, 0.03 mg daily, 24 h, day 28).
`Sc1ncnc2nc[nH]c12` gave an EC20 of > 400 µM (cytochrome c release, ELISA; BALB/cByJ female mouse liver mitochondria; 30 min; baseline: alamethicin maximal release).
Under tissue concentration, `COC(=O)C[C@](O)(CCCC(C)(C)O)C(=O)O[C@@H]1C(OC)=C[C@]23CCCN2CCc2cc4c(cc2[C@H]13)OCO4` is recorded as “not detected” (CD1 mouse, bone marrow; oral, 1 mg/kg, 0.5 h, below quantification limit 1.00 ng/mL).
`Cc1c(Cl)c(C)[n+]([O-])c(Cl)c1-c1noc(-c2cc(O)c(O)c([N+](=O)[O-])c2)n1` gave a Km of 41.9 ± 26.9 µM (glucuronidation, substrate; human intestinal microsomes; pH 7.5).
Under “initial degradation rate”, `CC[C@H](C)[C@H](NC(=O)[C@H](C)NC(=O)[C@H](CCC(=O)O)NC(=O)[C@H](CCCCNC(=O)c1ccc2c(c1)C1(OC2=O)c2ccc(O)cc2Oc2cc(O)ccc21)NC(=O)CCOCCOCCOCCNC(=O)CCOCCOCCOCCNC(=O)[C@@H]1CSCC(=O)N[C@@H](Cc2c[nH]c3ccccc23)C(=O)N2CCC[C@@H]2C(=O)NCC(=O)N[C@@H](CCCNC(=N)N)C(=O)N1)C(=O)N[C@@H](Cc1ccc(O)cc1)C(=O)N[C@@H](C)C(=O)N[C@@H](C)C(=O)N1CCC[C@H]1C(=O)N[C@@H](Cc1ccccc1)C(=O)N[C@@H](C)C(=O)N[C@@H](CCCCN)C(=O)N[C@@H](CCCCN)C(=O)N[C@@H](CCCCN)C(N)=O` is recorded as 1.1 pmol/mg/s (Baf/BCR-ABL cell lysate; 2 µM, 37 °C).
With `[2H]C([2H])([2H])Oc1cc2c(cc1OC([2H])([2H])[2H])C1CC(=O)C(CC(C)C)CN1CC2` (stereo not drawn) the dose-normalized AUC(0-t) was 5.2 ng·h/mL (item: deuterated β-HTBZ; healthy human volunteers, plasma; oral, 18 mg single dose, standard meal).

Excerpt of the above:
`Cn1c(-c2ccc(C(N)=O)cc2F)nnc1C(C)(C)Oc1c(F)cc(Cl)cc1F` has a Ctrough of 0.443 to 0.652 ng/mL (young non-Japanese healthy subjects, plasma; oral, 0.2 mg once daily, 3 mg loading day 1, min-max, last dosing day).
With `COc1cc(Nc2ncc3c(n2)-c2ccc(Cl)cc2C(c2c(F)cccc2OC)=NC3)ccc1C(=O)O` the AUC(0-8h) was 2620 ± 1570 ng·h/mL (human, phase I; oral, 40 mg single dose).
`CC(=O)N1CCN(c2ccc(OCC3COC(Cn4ccnc4)(c4ccc(Cl)cc4Cl)O3)cc2)CC1` (stereo not drawn) gave an EC20 of > 400 µM (cytochrome c release, ELISA; BALB/cByJ female mouse liver mitochondria; 30 min; baseline: alamethicin maximal release).
With `CNCc1ccc(-c2[nH]c3cc(F)cc4c3c2CCNC4=O)cc1` the AUC(0-24 h) was 6000 ng·h/mL (human, plasma; oral, 300 mg, fed, high-fat meal, median).
The EC20 of `Clc1ccccc1C(c1ccccc1)(c1ccccc1)n1ccnc1` is reported as > 800 µM (cytochrome c release, ELISA; BALB/cByJ female mouse liver mitochondria; 30 min; baseline: alamethicin maximal release).
